Experimental data pooled from the literature.
Protocols differ between the studies behind these lines.
Organism: Escherichia coli

CC1(C)[C@H](NC(=O)/C(=N\OCC(=O)N2CCC(C(=O)O)C2)c2nsc(N)n2)C(=O)N1OS(=O)(=O)O (some centres unmarked) has an MIC of 4 µg/mL (agar dilution; 16-1, ESBL-producing).
CCCCCCCCCC(=O)Oc1c(C)c(OC)c2c(c1C)OC(=O)C(CCCCCCCC)C2(O)C=Cc1ccccc1 (centres unmarked) gave an MIC of 5000 µg/mL (microbial growth, broth dilution; ATCC25922).
The MIC of COc1ccc(/N=N/C(=S)N2CCOCC2)cc1 is reported as > 50 µM (microbial growth, broth dilution; ATCC 8739, ATCC8739; 24 h).
The MIC of CC[C@H]1OC(=O)[C@H](C)[C@@H](OC(=O)c2ccc(N)cc2)[C@H](C)[C@@H](O[C@@H]2O[C@H](C)C[C@H](N(C)C)[C@H]2O)[C@](C)(OC)C[C@@H](C)C(=O)[C@H](C)[C@@H](O)[C@]1(C)O is reported as > 32 µg/mL (lpxC).
The MIC of C/C(=C\c1ccc(O)cc1)C(=O)Nc1ccc(C(=O)N[C@@H](Cc2c[nH]nn2)C(=O)Nc2ccc(C(=O)Nc3ccc(C(=O)Nc4ccc(C(=O)O)c(O)c4)c(O)c3)cc2)cc1 is reported as 0.25 µg/mL (broth microdilution; ciprofloxacin-sensitive).
For CC[C@H]1OC(=O)[C@H](C)C(=O)[C@H](C)[C@@H](O[C@@H]2O[C@H](C)C[C@H](N(C)C)[C@H]2O)[C@](C)(OC)C[C@@H](C)C(=O)[C@H](C)[C@H]2N(CCCCn3cnc(-c4cccnc4)c3)C(=O)O[C@]12C, the MIC was 8 µg/mL (tolC).
For CCCCCCCC[N+](C)(C)CCCCCCCCOc1cc(OCCCCCCCC[N+](C)(C)CCCCCCCC)cc(OCCCCCCCC[N+](C)(C)CCCCCCCC)c1.[Br-].[Br-].[Br-], the MIC was 1 µM (MC4100).
CC(CC(=O)O)c1nn(C)c2nc(N)[nH]c(=O)c2c1=O (centres unmarked) has an MIC of > 100 µg/mL (microbial growth, broth dilution; BW25113; 18 h).
For COc1ccc2ccc(O)c(/C=N/[C@H]3CCCC[C@H]3/N=C/c3cccc(C)c3O)c2c1, the MIC was > 40 µM (microbial growth, broth dilution).
For COc1c(NC(=O)c2ccc(NC(=O)[C@H](Cc3c[nH]nn3)NC(=O)c3ccc(NC(=O)/C(C)=C/c4ccc(O)cc4)cc3)cc2)ccc(C(=O)Nc2ccc(C(=O)O)cc2)c1O, the MIC was 0.25 µg/mL (broth microdilution; DSM 1116).
With COc1ccc(/C=N/[C@@H]2CCCC[C@@H]2/N=C/c2c(O)ccc3ccc(OC)cc23)c(O)c1 the MIC was > 40 µM (microbial growth, broth dilution; clinical isolate).
The MIC of CCCCCCCCCC[N+](C)(C)CCCCOc1cc(OCCCC[N+](C)(C)CCCCCCCCCC)cc(OCCCC[N+](C)(C)CCCCCCCCCC)c1.[Br-].[Br-].[Br-] is reported as 1 µM (MC4100).
For COc1ccc2ccc(O)c(/C=N/[C@H]3CCCC[C@H]3/N=C/c3ccc(C)cc3O)c2c1, the MIC was > 40 µM (microbial growth, broth dilution; clinical isolate).
With CC(C)C[C@@H]1NC(=O)[C@@H](CC(C)C)NC(=O)[C@H](CCN)NC(=O)[C@@H](NC(=O)[C@H](CCN)NC(=O)[C@@H](N)[C@@H](C)O)CCNC(=O)[C@H]([C@@H](C)O)NC(=O)[C@H](CCN)NC(=O)[C@H](CCN)NC1=O the MIC was > 128 µg/mL (broth microdilution; ATCC 35218, cation-adjusted Mueller-Hinton broth; 18 to 20 h, 37 °C, 0.002% polysorbate 80).
The MIC of C[C@H](CS)C(=O)Nc1cccc(-c2nn[nH]n2)c1 is reported as > 64 µg/mL (broth microdilution; DH5α pET28-lacUV5 control; 50 µM).
For COc1c(NC(=O)c2ccc(NC(=O)c3ccc(NC(=O)[C@H](Cc4c[nH]nn4)NC(=O)c4ccc(NC(=O)/C(C)=C/c5ccc(O)cc5)cc4)cc3)cc2)ccc(C(=O)O)c1O, the MIC was 0.063 µg/mL (broth microdilution; DSM 1116).
For CCCCCCCCn1cc[n+](CCCCCCCCCCOc2cc(OCCCCCCCCCC[n+]3ccn(CCCCCCCC)c3)cc(OCCCCCCCCCC[n+]3ccn(CCCCCCCC)c3)c2)c1.[Br-].[Br-].[Br-], the MIC was 16 µM (MC4100).
C=C[C@H]1CC1(NC(=O)C12CC(NC(=O)c3ccc(C#N)cc3)(C1)C2)C(=O)Nc1ccc(C(=O)Nc2ccc(C(=O)Nc3ccc(C(=O)O)cc3)c(O)c2OC(C)C)cc1 (some centres unmarked) has an MIC of 0.2 µg/mL (microbial growth; BW25113).
With C#CCO/N=C(\C(=O)N[C@@H]1C(=O)N(OS(=O)(=O)O)C1(C)C)c1nsc(N)n1 the MIC was 4 µg/mL (agar dilution; 16-1, ESBL-producing).
For CCCCCCCC(=O)Oc1c(C)c(OC)c2c(/C=C/c3ccccc3)c(CCCCCC)c(=O)oc2c1C, the MIC was 5000 µg/mL (microbial growth, broth dilution; ATCC25922).
With c1ccc(CN2CCOCCOCCN(CCCCCCCCCCN3CCOCCOCCN(CCCCCCCCCCN4CCOCCOCCN(Cc5ccccc5)CCOCCOCC4)CCOCCOCC3)CCOCCOCC2)cc1 the MIC was 35 µM (tetracycline-resistant (pBR322)).
With CC[C@H]1OC(=O)[C@H](C)[C@@H](OC(=O)Cc2cccc(Cl)c2)[C@H](C)[C@@H](O[C@@H]2O[C@H](C)C[C@H](N(C)C)[C@H]2O)[C@](C)(OC)C[C@@H](C)C(=O)[C@H](C)[C@@H](O)[C@]1(C)O the MIC was 2 µg/mL (tolC).
CC[C@H](C)[C@H](NC(=O)[C@@H](CCCNC(=N)N)NC(=O)[C@H](CCCNC(=N)N)NC(=O)[C@@H]1CCCN1C(=O)[C@@H]1CCCN1C(=O)[C@H](CCCNC(=N)N)NC(=O)[C@@H]1CCCN1C(=O)[C@H](CCCNC(=N)N)NC(=O)[C@@H]1CCCN1C(=O)[C@H](CC(C)C)NC(=O)[C@H](Cc1ccc(O)cc1)NC(=O)[C@@H]1CCCN1C(=O)[C@H](CCCCN)NC(=O)[C@H](CCCCN)NC(=O)[C@H](CC(=O)O)NC(=O)[C@@H](N)C(C)C)C(=O)N[C@@H](Cc1ccc(O)cc1)C(=O)N[C@@H](CC(N)=O)C(=O)N[C@H](CCCNC(=N)N)C(N)=O gave an MIC of 4 µg/mL (broth microdilution; MC4100; 18 h, 37 °C, 25% MHB2).
With CC[C@H]1OC(=O)[C@H](C)[C@@H](OC(=O)Cc2ccccc2[N+](=O)[O-])[C@H](C)[C@@H](O[C@@H]2O[C@H](C)C[C@H](N(C)C)[C@H]2O)[C@](C)(OC)C[C@@H](C)C(=O)[C@H](C)[C@@H](O)[C@]1(C)O the MIC was > 32 µg/mL (lpxC).
CCC(CC)c1cc(CCN2CCCN(S(=O)(=O)c3cccc4cccnc34)CC2)nc(-c2ccccn2)n1 gave an MIC of > 64 µg/mL (microbial growth, broth dilution; ATCC25922).
For CCOc1c(NC(=O)c2ccc(NC(=O)c3ccc(NC(=O)[C@H](Cc4c[nH]nn4)NC(=O)c4ccc(NC(=O)/C(C)=C/c5ccc(O)cc5)cc4)cc3)c(OCC)c2O)ccc(C(=O)O)c1O, the MIC was 0.031 µg/mL (broth microdilution; DSM 1116).
CC[C@H]1OC(=O)[C@H](C)[C@@H](OC(=O)Cc2ccc(N)cc2)[C@H](C)[C@@H](O[C@@H]2O[C@H](C)C[C@H](N(C)C)[C@H]2O)[C@](C)(OC)C[C@@H](C)C(=O)[C@H](C)[C@@H](O)[C@]1(C)O gave an MIC of 2 µg/mL (tolC).
The MIC of COc1c(NC(=O)c2ccc(NC(=O)[C@H](Cc3c[nH]nn3)NC(=O)c3ccc(NC(=O)/C(C)=C/c4ccc(O)cc4)cc3)cc2)ccc(C(=O)Nc2ccc(C(=O)O)c(O)c2)c1O is reported as 0.125 µg/mL (broth microdilution; DSM 1116).
Cn1nc(CCC#N)c(=O)c2c(=O)[nH]c(N)nc21 has an MIC of 50 µg/mL (microbial growth, broth dilution; BW25113; 18 h).
For CCOc1c(NC(=O)c2ccc(NC(=O)[C@H](Cc3c[nH]nn3)NC(=O)c3ccc(NC(=O)/C(C)=C/c4ccc(O)cc4)cc3)cc2)ccc(C(=O)Nc2ccc(C(=O)O)c(O)c2OC)c1O, the MIC was 0.25 µg/mL (broth microdilution; ciprofloxacin-resistant).
With N=C(N)NCCC[C@@H]1NC(=O)[C@@H](CCCNC(=N)N)NC(=O)[C@H](CCCNC(=N)N)NC(=O)[C@@H](C(c2ccccc2)c2ccccc2)NC(=O)[C@@H](C(c2ccccc2)c2ccccc2)NC(=O)[C@@H](C(c2ccccc2)c2ccccc2)NC(=O)[C@@H](CCCNC(=N)N)NC1=O the MIC was 32 µg/mL (ATCC 25922).
With COc1cc(C(=O)O)ccc1NC(=O)c1ccc(NC(=O)c2ccc(NC(=O)[C@H](Cc3c[nH]nn3)NC(=O)c3ccc(NC(=O)/C(C)=C/c4ccc(O)cc4)cc3)cc2)cc1O the MIC was 0.25 µg/mL (broth microdilution; ciprofloxacin-sensitive).
With CC(C)C[C@@H]1NC(=O)[C@@H](CC(C)C)NC(=O)[C@H](CCN)NC(=O)[C@@H](NC(=O)[C@H](CCN)NC(=O)[C@@H](NC(=O)CN=[N+]=[N-])[C@@H](C)O)CCNC(=O)[C@H]([C@@H](C)O)NC(=O)[C@H](CCN)NC(=O)[C@H](CCN)NC1=O the MIC was 64 µg/mL (broth microdilution; ATCC 35218, cation-adjusted Mueller-Hinton broth; 18 to 20 h, 37 °C, 0.002% polysorbate 80).
COc1c(NC(=O)c2ccc(NC(=O)c3ccc(NC(=O)[C@H](CC#N)NC(=O)c4ccc(NC(=O)/C(C)=C/c5ccc(O)cc5)cc4)cc3)c(OC)c2O)ccc(C(=O)O)c1O has an MIC of 0.063 µg/mL (microbial growth, broth dilution; BW25113).
The MIC of CC[C@H](C)[C@H](NC(=O)[C@H](CCC(N)=O)NC(=O)[C@H](Cc1ccccc1)NC(=O)[C@H](CC(N)=O)NC(=O)[C@H](CCCCN)NC(=O)[C@H](CC(C)C)NC(=O)[C@H](CCCNC(=N)N)NC(=O)[C@H](CCCCN)NC(=O)[C@H](CCCCN)NC(=O)[C@@H](NC(=O)[C@H](CO)NC(=O)[C@H](CCCCN)NC(=O)CNC(=O)[C@H](CC(C)C)NC(=O)[C@H](CCCCN)NC(=O)[C@H](CCCCN)NC(=O)[C@H](CC(C)C)NC(=O)[C@H](CCCCN)NC(=O)[C@H](CCCCN)NC(=O)[C@H](CCCNC(=N)N)NC(=O)[C@H](CC(C)C)NC(=O)CNC(=O)[C@@H](N)CCCNC(=N)N)[C@@H](C)CC)C(=O)NCC(=O)N[C@@H](Cc1ccccc1)C(=O)N[C@@H](CO)C(=O)N[C@H](C(=O)N1CCC[C@H]1C(=O)N[C@@H](Cc1ccccc1)C(=O)N[C@@H](C)C(=O)NCC(=O)O)C(C)C is reported as 2.36 µM (broth microdilution; ATCC 25922).
